Assay results of several laboratories.
Numbered parts are unrelated; each lists some results of a single study.

Set 1
Target: Prothrombin, mature alpha-thrombin (F2, Homo sapiens, UniProt P00734)
Technique: aptamer microarray, sandwich
Form: DNA with 2'F-ANA
Sample: in vitro
Concentration: 200 nM
Setting: whole 15-mer aptamer, many near background
Together with: Cy3 exosite-II aptamer, 400 nM
Direction: higher = stronger binding
Quantity: mean fluorescence intensity
Oligonucleotide: GGTTGGTGTGGTTGG
2'F-ANA at 2 4 6 7 9 10: 82.8 a.u.
2'F-ANA at 1 2 6 8 14: 78.3 a.u.
2'F-ANA at 1 2 3 4 5 6 8 9: 65.3 a.u.
2'F-ANA at 2 5 6 9 10 11 13 15: 99.9 a.u.
2'F-ANA at 1 4 5 7 8 13 15: 53.4 a.u.
2'F-ANA at 1 3 4 5 6 8 9 10 13: 65.3 a.u.
2'F-ANA at 1 2 4 6 7 9 10 11 12 13 15: 177 a.u.
2'F-ANA at 1 4 9 11 13 14 15: 48.8 a.u.
2'F-ANA at 5 6 9 10 13 15: 73.3 a.u.
2'F-ANA at 3 4 7 9 11 15: 740 a.u.
2'F-ANA at 2 4 7 8 10 12 13 14: 66.3 a.u.
2'F-ANA at 1 8 9 11 13 15: 165 a.u.
2'F-ANA at 2 3 4 5 6 9 13: 54.4 a.u.
2'F-ANA at 2 6 8 10 13 14: 82.7 a.u.
2'F-ANA at 1 2 3 4 7 9 10 11 13 14: 50.3 a.u.
2'F-ANA at 2 3 7 9 10 12 14 15: 299 a.u.
2'F-ANA at 1 5 9 10 13 14 15: 47.7 a.u.
2'F-ANA at 1 2 8 9 10 13 15: 111 a.u.
2'F-ANA at 2 3 8 11 12 13 14: 496 a.u.
2'F-ANA at 2 4 8 11 12 15: 547 a.u.
2'F-ANA at 1 2 3 6 7 11 12 15: 262 a.u.
2'F-ANA at 1 2 4 5 6 8 9 10 12 14: 51.6 a.u.
2'F-ANA at 5 7 8 10 11 12 13 15: 77.9 a.u.

Set 2
Target: Histone acetyltransferase KAT6A, winged helix 2, GST fusion (KAT6A, Homo sapiens, UniProt Q92794, residues 85-181)
Technique: protein binding microarray
Form: double-stranded DNA, one strand shown
Sample: in vitro
Concentration: not given
Setting: 8-mer, flanks averaged, mean of 2 arrays, mostly near background
Reference: not given
Direction: higher = stronger binding
Quantity: E-score
Construct (chain): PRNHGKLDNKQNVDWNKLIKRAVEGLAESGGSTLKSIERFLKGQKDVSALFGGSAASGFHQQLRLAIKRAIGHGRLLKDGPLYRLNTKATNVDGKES
GGGACAAC: -0.104
GTTAACTA: -0.0531
CAAACAGG: 0.0164
CTGGGGTA: -0.129
GTACTAGA: 0.00149
ACGGACGG: -0.00168
CACTTTTA: 0.0758
ACTTGCCG: 0.0949
AGGACATG: -0.172
CGGAACCA: 0.176
CGAAGTAC: 0.0488
ATTTTGTA: 0.008
ATCGATTC: -0.0792
AGTTGCAC: -0.0171
GATTCGCC: 0.0618
CAAGTGCG: 0.0389
ATAGTATA: -0.0851
CCCTTGAC: -0.098
AATTGCCC: -0.00347
GGTTGTGA: -0.0527
ACCACTGG: 0.0359
AGCGAGCT: 0.162
AGAGCTCA: -0.11
CCACCCTC: 0.14
CGCTACGA: 0.0391

Set 3
Target: RING finger protein unkempt homolog, zinc fingers 1-6, GST-SBP tag (UNK, Homo sapiens, UniProt Q9C0B0, residues 30-357)
UniProt Q9C0B0, sequence (30-357, looked up): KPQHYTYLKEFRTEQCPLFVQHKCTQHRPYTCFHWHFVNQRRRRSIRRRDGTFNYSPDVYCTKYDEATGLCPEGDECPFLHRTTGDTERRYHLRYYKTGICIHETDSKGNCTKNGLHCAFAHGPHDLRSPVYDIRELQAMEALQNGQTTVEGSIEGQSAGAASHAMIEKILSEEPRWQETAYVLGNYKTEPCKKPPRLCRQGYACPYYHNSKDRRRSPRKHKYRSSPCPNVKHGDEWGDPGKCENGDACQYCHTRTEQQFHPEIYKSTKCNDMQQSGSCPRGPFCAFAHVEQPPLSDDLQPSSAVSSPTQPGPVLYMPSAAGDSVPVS
Technique: RNA Bind-n-Seq
Form: RNA
Sample: in vitro
Concentration: not given
Setting: RNA with constant flanks, human and mouse sites, ends assumed
Reference: input RNA pool
Direction: higher = stronger binding
Quantity: bound/input enrichment
Constant ends, left off below: GGGAGUUCUACAGUCCGACGAUC … CAACAGAGGAUUGAGCAUCA
GAAGCUUUACAUGAGUUACUCAGUUUUGCUUGAAGCAGUUUAAUACCAUCUAUCAUAAAAGUAGCUACAACGUGUCGUGAGUGGAUUCAUUACAAAUGAGAGAUAUACCAUUUCUCUCUG: 0.231 ratio
UGGUUCUCCUCCAACUGAGAAAGCUUACAGUACAAUUUAAAGUGGGUCUCGCCUGCACUUACUAGUGUCUGACGAAACAGUCUUACAUCUGCCUAAGUAAUAGAAGAGCCCUGCAGAAUA: 0.185 ratio
AAAGAAUAUACUGAUGUAUACCCUGAAAUCAUUGAACGAGCAGGCUAUUCCUUGGAGAAGGUAUUUGGAAUCCAAUUGAAAGAAAUUGACAAGAAUGACCACUUGUAUAUUCUUCUCAGU: 0.11 ratio
CAGCAGCCACAGCCACUGAUGUCACAACAGUUUGCACAGCCUCCGGGAGCUACCAAUAUGAUAGGUUACAUGGGGCAGACUGCCUACCAAUACCCUCCUCCUCCUCCCCCUCCUCCUCCU: 0.336 ratio
AACAGUGAUAUAUGCAAGAAACCCUGUAGCGUAGCGCCUCAUGAUAGUCAGCUAAUUUCUAGUACUAUCCUAAUUAAUGAAAUGAAUGGAGUUGGAGAAAAAUUAUCAGCCAAGGAGAAC: 2.27 ratio
GCCAAGGCCAUUCAGCUGAACAGUAAUAGUGUUCAAGCUCUGCUACUUAAGGGAGCAGCACUUAGGAACAUGGGCAGAGUCCAAGAAGCAAUAAUCCACUUUCGGGAGGCCAUACGGCUC: 0.154 ratio
GGAGACCCUCAGAGUCAUCCAGUGACCAUGACUUUCAGGAGUAAGCCAACCUGUCAAAUCCAUUCCGUAAAGGCCUCGAUAAAGCUCAUCUCUCUGAGCUCUUACUGUCAGAAAUGCCAA: 0.145 ratio
GGACUUGAACAACUCACCAAGUCUCCAGUGGAAUUUGUAGAAUAUAACAAAAUGCAGCUUAGCAGGAUAUAUCCAAAAGGAACACGUGUGGAUUCAUCCAACUAUAUGCCUCAGCUCUUC: 0.868 ratio
AGUAUUGCUCAGUCACUAAAAGAAUUUGCAAGACUACUCAUUGCAGUAGAAGAAGAAAGGCGAAGACUGAUCCAAAACGCUAACGAUGUAUUAAUUGCACCACUUGAGAAAUUUCGAAAA: 0.176 ratio
CCUUAAGCUUCUCAGAGCAUUGCCACCACACCCAACUCAGAAUGUGUACUUAAGAAUGCAAAUAGAAUCUUAACCAAACAGUAUCUACAUCAACAUUUUAAUGUGAAACCUAACAGCAAA: 0.429 ratio
CUUAUUGGACGACGAUAUGAUGACCCUGAAGUACAGAAAGACACUAAGAAUGUUCCUUUUAAAAUUGUCCGUGCCUCCAAUGGUGAUGCUUGGGUUGAGGCUCAUGGAAAACUCUAUUCU: 0.276 ratio

Set 4
Target: Interferon regulatory factor 7, full length, phosphomimetic (IRF7, Homo sapiens, UniProt Q92985, residues 1-503, S471D/S472D/S475D/S476D/S477D/S483D/S484D/S487D)
Technique: protein-binding microarray
Form: double-stranded DNA, one strand shown
Sample: in vitro
Concentration: 2200 nM top
Setting: 60-bp whole probe
Together with: salmon DNA 0.4 mg/ml
Reference: random background probes
Direction: higher = stronger binding
Quantity: fitted relative affinity
Constant ends, left off below: GCCTAGCAC … GTCTTGATTCGCTTGACGCTGCTG
Residues (chain): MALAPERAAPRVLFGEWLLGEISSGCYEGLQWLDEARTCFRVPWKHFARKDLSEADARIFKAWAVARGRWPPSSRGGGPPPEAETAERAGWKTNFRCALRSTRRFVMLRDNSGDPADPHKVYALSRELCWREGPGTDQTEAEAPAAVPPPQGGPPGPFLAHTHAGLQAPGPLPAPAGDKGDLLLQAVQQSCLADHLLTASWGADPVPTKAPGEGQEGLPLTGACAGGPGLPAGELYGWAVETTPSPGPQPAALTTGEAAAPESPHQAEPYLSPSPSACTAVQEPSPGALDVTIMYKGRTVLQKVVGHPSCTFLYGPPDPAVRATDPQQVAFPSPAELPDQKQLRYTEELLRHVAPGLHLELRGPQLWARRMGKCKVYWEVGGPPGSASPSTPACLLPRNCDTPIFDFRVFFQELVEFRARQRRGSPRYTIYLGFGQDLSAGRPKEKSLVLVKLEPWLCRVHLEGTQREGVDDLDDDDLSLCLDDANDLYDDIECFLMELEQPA
TTAGGACTGGGTTATCGGTTAGTGCTA: -0.185 z-score
TCACTTCTCCATTTTTCACTGTGCTAG: 3.2 z-score
GACGGGATCGACTATCGGGACGTGCTA: -0.198 z-score
TCATAGTTGTGTCTTGCACTGTGCTAG: 1.01 z-score
TCTTTTTATGCTTTCTTTAAGTGCTAG: 1.74 z-score
GACGATTTCAGTTCGGAGACGTGCTAG: 1.36 z-score
TTAGGTTTCGGGACTGGTTTAGTGCTA: 3.34 z-score
GACGAACTGGGGTATCGGGACGTGCTA: -0.409 z-score
GGCGAACTGGGGTTTCGAGACGTGCTA: 0.532 z-score
TTAGGTAGCCTTATCCTTTAGTGCTAG: 0.0167 z-score
GAAGATTTCAGTTCCGAGACGTGCTAG: 1.42 z-score
TTAGAACTGAGTTTAGATTAGTGCTAG: -0.727 z-score
TCAGTTGTAGGTTTTCTGACTGTGCTA: 0.748 z-score
TGAGATTTCGGGTATCGATTAGTGCTA: 2.74 z-score
GACGGTATGGACTATCGGGACGTGCTA: -0.246 z-score
GACTGTTTCGGGTATCGGGACGTGCTA: 4.64 z-score
TGTTTTTGCTTTCTTTTTGCGTGCTAG: 8.49 z-score
TTAGGTTTCCTTTCCCGTTAGTGCTAG: 4.14 z-score
GACGGTATCGGTCTAGGGACGTGCTAG: 0.0193 z-score
TCAAATTGTCCTTTCACACTGTGCTAG: 1.54 z-score
GCTCCTCTTTTTTTGGTAATGTGCTAG: 1.64 z-score
TCACATCTGATTTCTCAAACTGTGCTA: 1.22 z-score
CTATGTCTGTTTTTGCTTTCGTGCTAG: 4.01 z-score
TGAGGTTTCGGTTTCGGTTAGTGCTAG: 16.8 z-score
CTAGGTATCGGGACTGGGTTAGTGCTA: -0.47 z-score

Some of these lines once more (set 3):
UGGUUCUCCUCCAACUGAGAAAGCUUACAGUACAAUUUAAAGUGGGUCUCGCCUGCACUUACUAGUGUCUGACGAAACAGUCUUACAUCUGCCUAAGUAAUAGAAGAGCCCUGCAGAAUA: 0.185 ratio
AAAGAAUAUACUGAUGUAUACCCUGAAAUCAUUGAACGAGCAGGCUAUUCCUUGGAGAAGGUAUUUGGAAUCCAAUUGAAAGAAAUUGACAAGAAUGACCACUUGUAUAUUCUUCUCAGU: 0.11 ratio
CAGCAGCCACAGCCACUGAUGUCACAACAGUUUGCACAGCCUCCGGGAGCUACCAAUAUGAUAGGUUACAUGGGGCAGACUGCCUACCAAUACCCUCCUCCUCCUCCCCCUCCUCCUCCU: 0.336 ratio
AACAGUGAUAUAUGCAAGAAACCCUGUAGCGUAGCGCCUCAUGAUAGUCAGCUAAUUUCUAGUACUAUCCUAAUUAAUGAAAUGAAUGGAGUUGGAGAAAAAUUAUCAGCCAAGGAGAAC: 2.27 ratio
GCCAAGGCCAUUCAGCUGAACAGUAAUAGUGUUCAAGCUCUGCUACUUAAGGGAGCAGCACUUAGGAACAUGGGCAGAGUCCAAGAAGCAAUAAUCCACUUUCGGGAGGCCAUACGGCUC: 0.154 ratio
GGAGACCCUCAGAGUCAUCCAGUGACCAUGACUUUCAGGAGUAAGCCAACCUGUCAAAUCCAUUCCGUAAAGGCCUCGAUAAAGCUCAUCUCUCUGAGCUCUUACUGUCAGAAAUGCCAA: 0.145 ratio
GGACUUGAACAACUCACCAAGUCUCCAGUGGAAUUUGUAGAAUAUAACAAAAUGCAGCUUAGCAGGAUAUAUCCAAAAGGAACACGUGUGGAUUCAUCCAACUAUAUGCCUCAGCUCUUC: 0.868 ratio
AGUAUUGCUCAGUCACUAAAAGAAUUUGCAAGACUACUCAUUGCAGUAGAAGAAGAAAGGCGAAGACUGAUCCAAAACGCUAACGAUGUAUUAAUUGCACCACUUGAGAAAUUUCGAAAA: 0.176 ratio
CCUUAAGCUUCUCAGAGCAUUGCCACCACACCCAACUCAGAAUGUGUACUUAAGAAUGCAAAUAGAAUCUUAACCAAACAGUAUCUACAUCAACAUUUUAAUGUGAAACCUAACAGCAAA: 0.429 ratio
